Results from different studies.
Numbered parts are unrelated; each lists some results of a single study. Positions count from the first letter of the parent shown.

Block 1 — target: inorganic phosphate, free oxyanion; method: microfluidic competitive inhibition; sample: in vitro, cell-free expressed; tested at: not given; reading: lower = stronger binding
Notes: derived from inhibition constants, unchanged parent 615000 nM
Starting sequence: PafA, mature enzyme, eGFP fusion (Elizabethkingia meningoseptica, UniProt Q9KJX5); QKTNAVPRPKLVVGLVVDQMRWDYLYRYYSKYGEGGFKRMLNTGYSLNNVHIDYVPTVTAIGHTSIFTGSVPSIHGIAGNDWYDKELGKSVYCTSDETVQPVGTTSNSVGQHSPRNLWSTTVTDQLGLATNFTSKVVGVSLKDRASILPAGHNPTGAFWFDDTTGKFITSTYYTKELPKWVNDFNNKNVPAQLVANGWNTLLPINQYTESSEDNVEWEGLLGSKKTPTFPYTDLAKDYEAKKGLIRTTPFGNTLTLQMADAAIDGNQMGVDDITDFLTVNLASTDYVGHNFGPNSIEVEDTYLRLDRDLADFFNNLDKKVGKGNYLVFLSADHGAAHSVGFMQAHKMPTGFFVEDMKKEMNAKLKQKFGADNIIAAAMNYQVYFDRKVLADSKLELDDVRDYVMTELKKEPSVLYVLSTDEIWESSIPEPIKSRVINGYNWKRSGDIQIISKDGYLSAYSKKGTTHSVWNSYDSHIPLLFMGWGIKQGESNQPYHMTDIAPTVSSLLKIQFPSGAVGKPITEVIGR
Substitution	phosphate dissociation constant
F184G	579 µM
N186V	641 µM
V516G	397 µM
T94V	364 µM
V413G	715 µM
P430G	644 µM
V12G	460 µM
S30G	670 µM
V12A	616 µM
T98V	601 µM
L506G	518 µM
T57G	92.6 µM
R39G	576 µM
D260G	718 µM
P154G	436 µM

Block 2 — method: competition protein-binding microarray; form: double-stranded DNA, one strand shown; sample: in vitro; tested at: 2 µM; with: Cbf1 competitor, 0.05 µM; reading: higher = stronger binding; constant ends, left off below: … GTCTTGATTCGCTTGACGCTGCTG
Target: Phosphate system positive regulatory protein PHO4, full length, GST-tagged (PHO4, Saccharomyces cerevisiae, UniProt P07270, residues 1-312)
Notes: whole 60-bp probe, lowest competitor level
Residues (chain): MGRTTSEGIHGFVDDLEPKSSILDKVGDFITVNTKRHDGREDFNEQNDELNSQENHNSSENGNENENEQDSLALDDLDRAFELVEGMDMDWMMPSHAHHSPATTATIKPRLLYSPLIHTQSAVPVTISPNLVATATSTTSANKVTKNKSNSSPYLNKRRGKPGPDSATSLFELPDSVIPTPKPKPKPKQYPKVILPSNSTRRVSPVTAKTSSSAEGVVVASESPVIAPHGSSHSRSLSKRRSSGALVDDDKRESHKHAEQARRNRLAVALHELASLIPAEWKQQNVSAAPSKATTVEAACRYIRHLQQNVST
Strand	fluorescence intensity [a.u.]
AAATTACTAAGTTGTCACATAACTTACCCCGTATGA	3640
CGTCCTAGTGATTGTCACAGTACTTCCATGAGGAAG	4720
TGTACACATTACTGGCACGCTCTAATAGTTCGTTTA	8660
CATACCCAACCTTGGTATGTGGGTGAAGATATTTGT	5010
AGGGTGGTATGGATACACGGGAAGCTGGGTGCTGCA	5370
CGTCCTAGTGATTTTCACGTGTACTCCATGAGGAAG	13200
GACGCGCGACCCGCGCGCGTGCCACTGCAAGCTCTG	11300
AATTGAAGTGCGAGTCACGTGCAAAGCGACGGTAGT	16000

Block 3 — effect on: phage display binding; method: phage display panning NGS; form: peptide; relative to: OGT-panned over input library
Target: UDP-N-acetylglucosamine--peptide N-acetylglucosaminyltransferase 110 kDa subunit (OGT, Homo sapiens, UniProt O15294)
UniProt O15294, sequence (whole entry, looked up): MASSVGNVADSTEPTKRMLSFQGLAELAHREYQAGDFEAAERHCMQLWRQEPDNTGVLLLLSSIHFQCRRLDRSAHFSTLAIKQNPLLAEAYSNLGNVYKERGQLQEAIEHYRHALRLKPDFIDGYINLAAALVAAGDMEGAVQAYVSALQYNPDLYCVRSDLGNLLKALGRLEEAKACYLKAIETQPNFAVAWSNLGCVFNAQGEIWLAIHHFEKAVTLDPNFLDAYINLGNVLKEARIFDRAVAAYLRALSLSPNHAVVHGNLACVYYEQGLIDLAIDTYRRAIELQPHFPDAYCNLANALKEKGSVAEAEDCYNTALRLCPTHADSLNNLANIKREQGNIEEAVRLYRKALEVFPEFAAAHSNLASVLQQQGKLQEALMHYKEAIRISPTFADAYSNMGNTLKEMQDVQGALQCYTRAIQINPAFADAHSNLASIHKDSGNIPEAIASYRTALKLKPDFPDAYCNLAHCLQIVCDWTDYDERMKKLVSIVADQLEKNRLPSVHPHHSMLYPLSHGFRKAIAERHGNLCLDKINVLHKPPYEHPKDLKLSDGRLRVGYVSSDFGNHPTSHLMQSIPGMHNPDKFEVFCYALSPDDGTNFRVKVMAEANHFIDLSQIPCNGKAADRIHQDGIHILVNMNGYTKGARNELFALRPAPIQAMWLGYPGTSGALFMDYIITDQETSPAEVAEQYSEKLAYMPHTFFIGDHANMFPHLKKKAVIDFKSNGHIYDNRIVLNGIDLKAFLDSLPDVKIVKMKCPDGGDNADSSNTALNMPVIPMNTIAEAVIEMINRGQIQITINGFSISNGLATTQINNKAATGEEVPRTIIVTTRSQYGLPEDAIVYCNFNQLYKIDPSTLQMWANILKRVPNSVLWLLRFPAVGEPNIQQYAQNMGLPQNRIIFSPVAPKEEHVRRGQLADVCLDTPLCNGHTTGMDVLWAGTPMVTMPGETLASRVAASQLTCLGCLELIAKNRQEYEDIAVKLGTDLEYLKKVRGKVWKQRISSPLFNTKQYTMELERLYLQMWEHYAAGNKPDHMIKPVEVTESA
Molecule	log2 fold enrichment
TMRHTHDWIWQHGVQ	3.44
DHSLPTTHIHTHHDI	2.57
SAERHMHWPWNHRHS	2.71
HDGLKWGKHFTHHRG	2.04
GDQSYRPIYPIQYYK	3.75

Block 4 — method: protein-binding microarray; form: double-stranded DNA, one strand shown; sample: in vitro; tested at: not given; reading: higher = stronger binding
Target: Max dimerization protein 1, bHLH-zipper, MAX partner unstated (MXD1, Homo sapiens, UniProt Q05195, residues 56-136)
Notes: k-mer, scored over probes, only values ≥0.25
Residues (chain): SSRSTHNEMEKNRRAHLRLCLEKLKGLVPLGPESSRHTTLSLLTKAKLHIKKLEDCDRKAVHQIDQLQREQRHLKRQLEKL
Strand	E-score
CCATGCGG	0.404
CACCCGCC	0.274
AACTCATG	0.353
CATGTCCC	0.314
CTCGTGAC	0.355
GACATGCC	0.389
GCGTGCCA	0.312
CGTGTAAC	0.27

For quick reference, copied from above (block 2):
Strand	fluorescence intensity [a.u.]
TGTACACATTACTGGCACGCTCTAATAGTTCGTTTA	8660
AGGGTGGTATGGATACACGGGAAGCTGGGTGCTGCA	5370
